Assay results of several laboratories.
Every numbered part comes from another study and shows a few of its results, in no order.

Series 1
Target: Prothrombin, mature alpha-thrombin (F2, Homo sapiens, UniProt P00734)
Technique: aptamer microarray, sandwich
Molecule type: DNA with 2'F-ANA
Matrix: in vitro
Tested at: 200 nM
Setting: whole 15-mer aptamer, many near background
With: Cy3 exosite-II aptamer, 400 nM
Reading: higher = stronger binding
Sequence: GGTTGGTGTGGTTGG
Under “mean fluorescence intensity”, `2'F-ANA at 2 6 7 10 11 14` is recorded as 78.5 a.u.
`2'F-ANA at 3 4 10 11 12 13 14`: “mean fluorescence intensity” 201 a.u.
For `2'F-ANA at 4 5 7 9 12 13 15`, “mean fluorescence intensity” read 94 a.u.
`2'F-ANA at 2 3 7 8 10 13` — result for “mean fluorescence intensity”: 415 a.u.
`2'F-ANA at 1 4 5 8 9 14 15` — result for “mean fluorescence intensity”: 53.9 a.u.
For `2'F-ANA at 1 2 3 6 10 11 12 14`, “mean fluorescence intensity” read 53.6 a.u.
For `2'F-ANA at 3 5 6 8 10 12 13 14 15`, “mean fluorescence intensity” read 58.7 a.u.
For `2'F-ANA at 2 5 7 10 11 12 13 15`, “mean fluorescence intensity” read 51.4 a.u.
`2'F-ANA at 1 3 4 5 6 8 10 11 12 15` — result for “mean fluorescence intensity”: 53.6 a.u.
`2'F-ANA at 1 7 9 10 11 13 15`: “mean fluorescence intensity” 52.8 a.u.
`2'F-ANA at 1 2 6 7 11 13`: “mean fluorescence intensity” 197 a.u.
`2'F-ANA at 1 4 7 11 13`: “mean fluorescence intensity” 88.1 a.u.
`2'F-ANA at 1 2 3 5 7 8 15`: “mean fluorescence intensity” 70.9 a.u.
Under “mean fluorescence intensity”, `2'F-ANA at 3 4 5 9 13 15` is recorded as 62.6 a.u.
`2'F-ANA at 1 3 5 6 8 12 13 15`: “mean fluorescence intensity” 97.7 a.u.
For `2'F-ANA at 1 2 3 4 5 6 7 8 10 13 14`, “mean fluorescence intensity” read 49.1 a.u.
`2'F-ANA at 1 3 4 5 8 14 15` — result for “mean fluorescence intensity”: 46.1 a.u.
`2'F-ANA at 1 3 5 6 8 12 14` — result for “mean fluorescence intensity”: 86 a.u.
Under “mean fluorescence intensity”, `2'F-ANA at 1 5 7 9 10 14 15` is recorded as 43.4 a.u.
`2'F-ANA at 1 2 3 4 10 11 13 15` — result for “mean fluorescence intensity”: 66.3 a.u.
Under “mean fluorescence intensity”, `2'F-ANA at 1 2 3 4 6 7 8 9 10 11 13 14 15` is recorded as 88 a.u.
For `2'F-ANA at 2 4 7 9 10 15`, “mean fluorescence intensity” read 93.7 a.u.
`2'F-ANA at 1 2 3 4 8 9 11 12 14` — result for “mean fluorescence intensity”: 78.9 a.u.

Series 2
Target: Interferon regulatory factor 5, full length, phosphomimetic (IRF5, Homo sapiens, UniProt Q13568-2, residues 1-514, K96S/S451D/S453D/S456D/S462D)
Technique: protein-binding microarray
Molecule type: double-stranded DNA, one strand shown
Matrix: in vitro
Tested at: 250 nM
Setting: 60-bp whole probe
With: salmon DNA 0.4 mg/ml
Reference: random background probes
Reading: higher = stronger binding
Constant ends, left off below: GCCTAGCAC … GTCTTGATTCGCTTGACGCTGCTG
With `TTAGTTATCCTTTTCCTTTAGTGCTAG` the log fluorescence was 1.1 z-score.
`TCATTTATGTCCTGTCTAACTGTGCTA` gave a log fluorescence of 0.453 z-score.
With `GACGGTTTCGGTTCCGGTACGTGCTAG` the log fluorescence was 9.92 z-score.
`CTCCCCCTCAGATCTGCCGTCGTGCTA` gave a log fluorescence of -0.432 z-score.
`TTAGGTATCGGTTTAGGTTAGTGCTAG` has a log fluorescence of 8.25 z-score.
The log fluorescence of `TCATTTCTGTTTTTGCTACTGTGCTAG` is reported as 4.15 z-score.
`TTAGGACTGGACTTGCGGTTAGTGCTA` gave a log fluorescence of 0.512 z-score.
`ATAGGACTGCTTATCCTTTAGTGCTAG` has a log fluorescence of 0.102 z-score.
`GACGCTTTCCTTCTCCTGACGTGCTAG` gave a log fluorescence of 1.03 z-score.
With `TTAGGTATCGGTTTCGGTCAGTGCTAG` the log fluorescence was 10.5 z-score.
The log fluorescence of `GACGATATCGGGACTTGAGACGTGCTA` is reported as 0.757 z-score.
For `CACGGACTGGACTTTCGGGACGTGCTA`, the log fluorescence was 4.38 z-score.
With `GTTGCTCTCCGGGGTCTGTGAGTGCTA` the log fluorescence was -0.255 z-score.
`TCCTCTTTCTCTGCTACCCTCGTGCTA` has a log fluorescence of 1.37 z-score.
For `TTAGGACTGCTTATTCTTTAGTGCTAG`, the log fluorescence was 0.161 z-score.
With `TTAGCTTTCCTTTCCCTTTAGTGCTAG` the log fluorescence was 2.33 z-score.
`GAGGGTATCCTACTGCTGACGTGCTAG` gave a log fluorescence of -0.31 z-score.

Series 3
Target: Sal-like protein 4, full length isoform A (SALL4, Homo sapiens, UniProt Q9UJQ4, residues 1-1053)
Chain of UniProt Q9UJQ4 (whole entry, looked up): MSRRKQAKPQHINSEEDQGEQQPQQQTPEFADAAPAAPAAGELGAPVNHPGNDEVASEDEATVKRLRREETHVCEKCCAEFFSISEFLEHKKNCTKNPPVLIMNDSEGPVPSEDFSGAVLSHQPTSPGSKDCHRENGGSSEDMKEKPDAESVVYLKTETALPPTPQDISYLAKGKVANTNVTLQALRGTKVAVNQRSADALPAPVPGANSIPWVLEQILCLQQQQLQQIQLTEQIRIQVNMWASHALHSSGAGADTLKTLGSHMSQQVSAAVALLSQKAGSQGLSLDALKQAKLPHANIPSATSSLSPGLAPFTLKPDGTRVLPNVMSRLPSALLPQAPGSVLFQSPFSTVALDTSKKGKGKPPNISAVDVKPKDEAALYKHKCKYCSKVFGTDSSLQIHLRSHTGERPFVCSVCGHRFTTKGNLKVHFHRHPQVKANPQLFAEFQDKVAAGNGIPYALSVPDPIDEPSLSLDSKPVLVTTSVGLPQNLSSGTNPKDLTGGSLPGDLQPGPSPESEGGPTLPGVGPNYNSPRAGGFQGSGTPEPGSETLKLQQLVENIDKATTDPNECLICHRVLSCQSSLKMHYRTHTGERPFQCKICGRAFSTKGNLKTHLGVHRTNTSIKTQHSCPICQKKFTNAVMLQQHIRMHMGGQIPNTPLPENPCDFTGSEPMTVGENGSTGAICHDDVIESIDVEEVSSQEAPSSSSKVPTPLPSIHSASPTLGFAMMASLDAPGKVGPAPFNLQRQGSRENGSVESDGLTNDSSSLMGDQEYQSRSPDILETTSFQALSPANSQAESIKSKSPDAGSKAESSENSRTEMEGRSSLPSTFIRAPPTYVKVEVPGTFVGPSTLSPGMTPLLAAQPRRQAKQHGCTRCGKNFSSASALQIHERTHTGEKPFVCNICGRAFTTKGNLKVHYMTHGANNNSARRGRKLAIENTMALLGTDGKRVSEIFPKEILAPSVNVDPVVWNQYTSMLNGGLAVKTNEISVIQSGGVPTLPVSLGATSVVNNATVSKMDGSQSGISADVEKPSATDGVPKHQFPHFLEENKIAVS
Technique: universal PBM
Molecule type: double-stranded DNA, one strand shown
Matrix: in vitro
Tested at: 600 nM
Setting: 8-mer, flanks averaged, mean of replicates
Reading: higher = stronger binding
`GCAATGAC` gave an E-score of -0.0234.
With `TATCAAAA` the E-score was 0.323.
`CTGATCAG` has an E-score of -0.19.
With `ACCGACCG` the E-score was -0.227.
`GTAGGAAC` has an E-score of 0.067.
With `ACTTGTCC` the E-score was 0.00777.
The E-score of `CCTGCTCC` is reported as -0.205.
`GGTAGGTA` has an E-score of -0.0868.
For `GACCCCCC`, the E-score was -0.335.
With `CCGGGCTC` the E-score was -0.386.
`CTAAGAGC` gave an E-score of -0.275.
`CACCTTTC` gave an E-score of -0.0755.
With `CCACTTCC` the E-score was -0.036.
`TCGGTGAA` has an E-score of -0.0729.
With `AGGTCCTG` the E-score was -0.174.
`AACATTAG` has an E-score of 0.176.
`AGCCCGCC` gave an E-score of -0.386.
`AGAAGGAT` gave an E-score of 0.0624.
`GAAAGAAC` has an E-score of 0.0229.
The E-score of `AGAGCAAA` is reported as 0.122.
The E-score of `GGAACTAA` is reported as 0.00392.
With `ACCAATCC` the E-score was -0.114.
`AGGTCGAC` gave an E-score of -0.0781.
`GGGCTTTA` has an E-score of -0.2.
With `CCTAGGAA` the E-score was -0.0332.

Series 4
Target: Histone acetyltransferase KAT6A, winged helix 1, GST fusion (KAT6A, Homo sapiens, UniProt Q92794, residues 1-85)
Technique: protein binding microarray
Molecule type: double-stranded DNA, one strand shown
Matrix: in vitro
Tested at: not given
Setting: 8-mer, flanks averaged, mean of 2 arrays, mostly near background
Reference: not given
Reading: higher = stronger binding
Construct (chain): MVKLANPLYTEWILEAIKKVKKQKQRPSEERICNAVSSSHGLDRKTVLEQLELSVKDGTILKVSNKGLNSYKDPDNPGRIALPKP
`GAGAGAAC` gave an E-score of -0.257.
`GTGCATAA` has an E-score of -0.145.
The E-score of `CGTCTGCA` is reported as 0.00825.
With `GCTATTCC` the E-score was -0.0257.
With `CCACGAAG` the E-score was -0.139.
The E-score of `CCCCTCAA` is reported as -0.149.
For `CTGCTATC`, the E-score was -0.114.
The E-score of `ACATACAC` is reported as -0.127.
`CCATTTTA` has an E-score of 0.0559.
For `AGGCTAAA`, the E-score was -0.0256.
The E-score of `CATCAGTA` is reported as -0.154.
The E-score of `ACCGCAAA` is reported as 0.185.
`AACTGGAA` has an E-score of -0.22.
`CAACATGC` gave an E-score of 0.0882.
For `GCCATAAC`, the E-score was -0.0423.
The E-score of `ACTTTCGC` is reported as 0.0142.
The E-score of `AGGGGTTC` is reported as -0.169.

Series 5
Target: RNA binding protein fox-1 homolog 2, RRM domain, GST-SBP tag (RBFOX2, Homo sapiens, UniProt O43251-10, residues 100-194)
Technique: RNA Bind-n-Seq
Molecule type: RNA
Matrix: in vitro
Tested at: 365 nM
Setting: natural RNA segment, single round, ends assumed
Reference: no-protein control
Reading: higher = stronger binding
Construct (chain): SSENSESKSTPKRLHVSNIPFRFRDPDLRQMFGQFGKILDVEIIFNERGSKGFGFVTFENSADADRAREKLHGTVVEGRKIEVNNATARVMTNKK
`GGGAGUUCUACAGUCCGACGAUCCAAAAGAAGUAGCUUUUUCCAGUGUCUUUUGUGUUACUGAUUUGGGAAAUGUUGAAAGAUUGGACAGGGAAGAAUAGCGCUUGGUGUCCUCAUGGUCAUUCUGUCUUACCUGGAAUUCUCGGGUGCCAA`: “RBNS enrichment (R)” 0.843.
For `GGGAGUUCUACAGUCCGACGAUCCACUAUAAGGCUGAGGGCUGCCAGCAGCCCCGUCUGCCCACCAUUCCCGGCCGUGGACCAUAGUCGGGAUGUCAGCAGACACACAUGGGCAGCCCAAAGCUGCAGGUGCCUGGAAUUCUCGGGUGCCAA`, “RBNS enrichment (R)” read 0.224.
For `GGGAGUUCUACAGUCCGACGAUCACCAUGAGAACAGAAAUUACCUUGUGACAAGACAAGUGUUCUCAGUUUUCUCCUCACAUAUUGACGGUUUAUUUCCCUGGCCUCCUAGAAGGCUGAAUCCUUUUGACUCCUGGAAUUCUCGGGUGCCAA`, “RBNS enrichment (R)” read 0.291.
`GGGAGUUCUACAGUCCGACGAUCGGCCCUUUUUCUUUAUUGACUAGACCACCAGAGGAGGAUGUGUGGGAUUGUAGGCAAACCCACCUGUGGCAUCACUGAAAAUAAAUUUGAUCAUACCUAAGAGGUUAGGAUGGAAUUCUCGGGUGCCAA` — result for “RBNS enrichment (R)”: 0.719.
`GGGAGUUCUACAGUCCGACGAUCUAUUAUUCCUUAAGAACUCUGUGUUAUAUUACCAUGGAACGCCUAAUAAAGCAAAAUGUGGUUGUUUCAGGGGUGUGUCUGUAUUGAGAUGUUCGGGAGGCGGCUGCUUGUGGAAUUCUCGGGUGCCAA` — result for “RBNS enrichment (R)”: 0.726.
For `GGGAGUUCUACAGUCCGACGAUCUUAGCAGGGGUGACUUUGUCUCUCCUGGCUGGGCCAUCCUUCCGCCAAUCUGGCCCUUACACACUCAGGCCUGUGCCCACUCCCUAUCUCCUUCCCACCCCUACACACACUGGAAUUCUCGGGUGCCAA`, “RBNS enrichment (R)” read 0.768.
For `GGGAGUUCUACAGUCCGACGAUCGAGGCAACACUGUUCCGUUUGCACAUGAAGGACCACCACUCACCCCUCCCCCCAGGACCACCCAGGCCCACAUCCACCGGCUUCCUCAGCAGAUGCUGGGGUAUGGCCUCUGGAAUUCUCGGGUGCCAA`, “RBNS enrichment (R)” read 0.452.
`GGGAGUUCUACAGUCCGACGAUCGUAAUACAAACACAAACAUCAUACACACUGACUCUGAACUGGGUGAACUCUGUGAAGGGAGGCCCAGAAUGGGUGCUUUCACCAAAAAAUUUGCCCGUUUACAAUCCUAGUGGAAUUCUCGGGUGCCAA`: “RBNS enrichment (R)” 0.417.
Under “RBNS enrichment (R)”, `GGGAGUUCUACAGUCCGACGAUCCAAGUGGUAAAGCACUUGGAUUCACCCCCAAUGACCACUCAGCACAAAAUGCAGAAAUUCCUUCUGAAGGACUAAAGCGACCAGCUGUCUGCCACACCUGCAGUAACACAUGGAAUUCUCGGGUGCCAA` is recorded as 0.262.
Under “RBNS enrichment (R)”, `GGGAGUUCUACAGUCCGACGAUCCCUUAUGCACGGAACUGUUUCUGAGUGCCAAGCACAGAAAGCCGCUAAAUAAAAUCUUUGCAAUUGUUUUCUGUGUGUUUGUUCAUAUAGAAAAAUUAAGUAUUGUUUUCUGGAAUUCUCGGGUGCCAA` is recorded as 0.649.
`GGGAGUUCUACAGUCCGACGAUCAGCCUCUCCCACCUAACCUCUGCAUCCCCCAGCCUCAUGUCCUGCCCCAUCCCUAUCCUGCCUGAUCCCUGGAUCUCCCUCAGAUCCCCUCUUCUCAGACAGCGCCAGGCUGGAAUUCUCGGGUGCCAA` — result for “RBNS enrichment (R)”: 2.17.
`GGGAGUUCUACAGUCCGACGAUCACUUAACAGGUUCUUUGUCAACAUGGAGACAUUAACAUGGUAGCUCACUGACUGGGUCUCUUCAGCUGUCAUCAGGCUUCCACCAGAAGAACAAACAACAACAAAAAAAGUGGAAUUCUCGGGUGCCAA`: “RBNS enrichment (R)” 0.483.

Excerpt of the above (series 1):
Under “mean fluorescence intensity”, `2'F-ANA at 3 4 5 9 13 15` is recorded as 62.6 a.u.
`2'F-ANA at 1 2 6 7 11 13`: “mean fluorescence intensity” 197 a.u.
`2'F-ANA at 2 3 7 8 10 13` — result for “mean fluorescence intensity”: 415 a.u.
For `2'F-ANA at 1 2 3 4 5 6 7 8 10 13 14`, “mean fluorescence intensity” read 49.1 a.u.
`2'F-ANA at 1 3 5 6 8 12 13 15`: “mean fluorescence intensity” 97.7 a.u.
`2'F-ANA at 1 2 3 4 8 9 11 12 14` — result for “mean fluorescence intensity”: 78.9 a.u.
For `2'F-ANA at 1 2 3 6 10 11 12 14`, “mean fluorescence intensity” read 53.6 a.u.
`2'F-ANA at 1 3 4 5 8 14 15` — result for “mean fluorescence intensity”: 46.1 a.u.
`2'F-ANA at 1 2 3 4 10 11 13 15` — result for “mean fluorescence intensity”: 66.3 a.u.
